Values quoted from earlier work that unrelated publications cite.
Each line is one published result; not all experiments were run side by side. ± gives the spread as reported.

Sequences of proteins named here, by UniProt entry; tags and fusion partners are left off. A change or cut given only in a name is not applied to a line headed by its entry. Residues count along the entry.
UniProt P33535, whole entry: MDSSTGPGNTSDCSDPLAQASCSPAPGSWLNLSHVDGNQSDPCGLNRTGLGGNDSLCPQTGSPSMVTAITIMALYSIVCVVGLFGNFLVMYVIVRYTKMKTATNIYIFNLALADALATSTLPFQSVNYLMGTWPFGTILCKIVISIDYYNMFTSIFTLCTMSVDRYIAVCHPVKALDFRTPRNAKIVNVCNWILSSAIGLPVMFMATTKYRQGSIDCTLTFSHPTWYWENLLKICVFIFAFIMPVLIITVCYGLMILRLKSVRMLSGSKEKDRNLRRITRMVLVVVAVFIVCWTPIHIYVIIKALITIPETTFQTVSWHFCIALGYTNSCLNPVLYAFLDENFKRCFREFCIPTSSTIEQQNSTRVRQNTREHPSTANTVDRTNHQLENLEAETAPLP
UniProt Q8VSX5, 1-224: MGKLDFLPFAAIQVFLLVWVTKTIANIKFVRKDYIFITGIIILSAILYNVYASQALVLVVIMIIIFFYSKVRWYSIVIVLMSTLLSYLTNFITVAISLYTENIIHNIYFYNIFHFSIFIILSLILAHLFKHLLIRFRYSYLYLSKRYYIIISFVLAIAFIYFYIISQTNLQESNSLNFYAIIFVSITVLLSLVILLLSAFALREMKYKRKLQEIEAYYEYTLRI
UniProt Q8IVW8, 103-549 limits assumed: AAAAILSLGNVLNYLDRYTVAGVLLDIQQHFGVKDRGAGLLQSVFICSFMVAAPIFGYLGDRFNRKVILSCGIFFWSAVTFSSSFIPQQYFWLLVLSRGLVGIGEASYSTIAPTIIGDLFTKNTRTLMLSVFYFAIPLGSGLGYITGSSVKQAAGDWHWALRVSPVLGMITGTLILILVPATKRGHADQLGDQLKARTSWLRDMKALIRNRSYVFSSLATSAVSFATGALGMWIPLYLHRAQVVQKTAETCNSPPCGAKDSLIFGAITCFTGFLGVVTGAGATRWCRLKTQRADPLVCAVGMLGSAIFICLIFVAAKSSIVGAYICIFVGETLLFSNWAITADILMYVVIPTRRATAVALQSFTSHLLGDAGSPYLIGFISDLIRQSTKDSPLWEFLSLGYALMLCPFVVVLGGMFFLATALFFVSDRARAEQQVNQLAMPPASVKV
UniProt P31424, 21-1203 limits assumed: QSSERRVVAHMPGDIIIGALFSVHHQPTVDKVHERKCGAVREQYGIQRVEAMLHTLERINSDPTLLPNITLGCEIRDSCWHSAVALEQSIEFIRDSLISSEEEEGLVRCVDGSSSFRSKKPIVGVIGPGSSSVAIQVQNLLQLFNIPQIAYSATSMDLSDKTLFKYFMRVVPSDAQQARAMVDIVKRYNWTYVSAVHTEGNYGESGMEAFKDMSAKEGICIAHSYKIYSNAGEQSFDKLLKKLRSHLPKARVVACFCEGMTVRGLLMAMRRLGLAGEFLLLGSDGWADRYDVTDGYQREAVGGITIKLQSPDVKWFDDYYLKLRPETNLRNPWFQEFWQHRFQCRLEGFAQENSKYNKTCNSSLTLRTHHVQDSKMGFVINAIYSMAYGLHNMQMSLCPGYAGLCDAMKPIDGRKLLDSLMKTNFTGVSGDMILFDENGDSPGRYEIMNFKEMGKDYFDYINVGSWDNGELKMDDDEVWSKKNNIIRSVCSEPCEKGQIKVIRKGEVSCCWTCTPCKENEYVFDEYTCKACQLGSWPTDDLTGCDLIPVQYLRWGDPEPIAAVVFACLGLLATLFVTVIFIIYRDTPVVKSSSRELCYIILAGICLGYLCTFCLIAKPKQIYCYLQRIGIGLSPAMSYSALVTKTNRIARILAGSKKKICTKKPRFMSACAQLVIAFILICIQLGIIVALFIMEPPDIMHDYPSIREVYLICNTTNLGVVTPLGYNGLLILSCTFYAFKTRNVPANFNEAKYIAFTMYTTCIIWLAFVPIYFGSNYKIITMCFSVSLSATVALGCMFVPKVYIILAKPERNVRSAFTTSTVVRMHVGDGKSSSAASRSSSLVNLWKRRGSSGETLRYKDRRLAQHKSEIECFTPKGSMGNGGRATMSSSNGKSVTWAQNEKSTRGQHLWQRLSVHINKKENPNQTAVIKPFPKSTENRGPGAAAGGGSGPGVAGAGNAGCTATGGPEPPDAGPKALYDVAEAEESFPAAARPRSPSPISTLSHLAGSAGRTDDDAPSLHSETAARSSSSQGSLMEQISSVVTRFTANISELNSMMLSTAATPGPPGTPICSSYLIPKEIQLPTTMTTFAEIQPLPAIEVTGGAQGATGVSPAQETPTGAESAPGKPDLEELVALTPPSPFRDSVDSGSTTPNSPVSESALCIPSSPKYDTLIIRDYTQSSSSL
UniProt P42866, whole entry: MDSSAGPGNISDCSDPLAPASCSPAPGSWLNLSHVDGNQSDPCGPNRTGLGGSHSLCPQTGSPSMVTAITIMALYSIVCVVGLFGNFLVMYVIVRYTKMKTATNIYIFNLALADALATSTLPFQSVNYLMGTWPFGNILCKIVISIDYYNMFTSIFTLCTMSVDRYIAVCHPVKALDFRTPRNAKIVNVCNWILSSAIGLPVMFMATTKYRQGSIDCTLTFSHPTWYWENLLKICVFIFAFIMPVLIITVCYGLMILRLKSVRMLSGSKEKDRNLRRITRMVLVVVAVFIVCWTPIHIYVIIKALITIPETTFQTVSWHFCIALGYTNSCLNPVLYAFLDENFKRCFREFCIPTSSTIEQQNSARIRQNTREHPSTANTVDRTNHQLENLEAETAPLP
UniProt P41143, whole entry: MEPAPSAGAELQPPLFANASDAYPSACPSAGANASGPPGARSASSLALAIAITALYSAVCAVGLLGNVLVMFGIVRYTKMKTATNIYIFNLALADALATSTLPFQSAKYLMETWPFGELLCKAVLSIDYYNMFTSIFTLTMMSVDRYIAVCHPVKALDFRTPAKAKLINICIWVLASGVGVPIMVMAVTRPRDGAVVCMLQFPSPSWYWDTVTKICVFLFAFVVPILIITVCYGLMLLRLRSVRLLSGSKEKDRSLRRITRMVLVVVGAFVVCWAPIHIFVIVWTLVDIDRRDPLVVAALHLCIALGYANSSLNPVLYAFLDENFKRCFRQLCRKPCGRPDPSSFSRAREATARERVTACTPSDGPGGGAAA
UniProt P32300, whole entry: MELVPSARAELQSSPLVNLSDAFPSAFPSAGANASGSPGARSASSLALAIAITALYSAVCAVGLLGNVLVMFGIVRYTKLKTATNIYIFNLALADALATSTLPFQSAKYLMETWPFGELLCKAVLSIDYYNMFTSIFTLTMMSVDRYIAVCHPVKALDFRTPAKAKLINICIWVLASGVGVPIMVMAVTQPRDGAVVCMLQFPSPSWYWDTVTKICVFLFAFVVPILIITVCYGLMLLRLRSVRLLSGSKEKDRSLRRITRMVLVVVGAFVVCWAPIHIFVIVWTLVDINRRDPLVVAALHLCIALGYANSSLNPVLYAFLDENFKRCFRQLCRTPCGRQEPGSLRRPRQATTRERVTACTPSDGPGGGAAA
UniProt O33590, 1-425: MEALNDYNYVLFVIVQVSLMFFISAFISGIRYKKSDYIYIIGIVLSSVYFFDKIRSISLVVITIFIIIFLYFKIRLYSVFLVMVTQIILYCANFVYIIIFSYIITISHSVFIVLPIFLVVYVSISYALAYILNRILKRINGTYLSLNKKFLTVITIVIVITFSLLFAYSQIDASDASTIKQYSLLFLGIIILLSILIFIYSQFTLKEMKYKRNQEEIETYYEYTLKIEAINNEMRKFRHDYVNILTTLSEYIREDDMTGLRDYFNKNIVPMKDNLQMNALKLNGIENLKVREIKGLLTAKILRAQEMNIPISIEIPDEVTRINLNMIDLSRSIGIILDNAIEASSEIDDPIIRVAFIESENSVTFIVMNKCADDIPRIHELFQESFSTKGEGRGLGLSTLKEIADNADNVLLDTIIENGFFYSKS
UniProt Q00987, whole entry L33E, looked up: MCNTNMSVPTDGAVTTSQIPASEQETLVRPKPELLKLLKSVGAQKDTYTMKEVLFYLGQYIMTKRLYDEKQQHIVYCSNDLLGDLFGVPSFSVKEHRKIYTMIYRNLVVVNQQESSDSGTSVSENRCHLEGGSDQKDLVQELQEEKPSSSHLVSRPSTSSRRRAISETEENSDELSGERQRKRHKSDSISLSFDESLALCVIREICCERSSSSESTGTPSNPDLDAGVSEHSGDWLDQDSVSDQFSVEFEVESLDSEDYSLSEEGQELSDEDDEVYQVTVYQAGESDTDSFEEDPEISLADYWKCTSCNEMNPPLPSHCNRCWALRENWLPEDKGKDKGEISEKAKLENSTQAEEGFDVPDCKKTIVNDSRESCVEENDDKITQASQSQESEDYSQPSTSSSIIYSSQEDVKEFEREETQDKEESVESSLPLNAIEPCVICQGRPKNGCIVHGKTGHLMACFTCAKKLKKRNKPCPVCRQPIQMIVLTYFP
UniProt Q86X55, whole entry: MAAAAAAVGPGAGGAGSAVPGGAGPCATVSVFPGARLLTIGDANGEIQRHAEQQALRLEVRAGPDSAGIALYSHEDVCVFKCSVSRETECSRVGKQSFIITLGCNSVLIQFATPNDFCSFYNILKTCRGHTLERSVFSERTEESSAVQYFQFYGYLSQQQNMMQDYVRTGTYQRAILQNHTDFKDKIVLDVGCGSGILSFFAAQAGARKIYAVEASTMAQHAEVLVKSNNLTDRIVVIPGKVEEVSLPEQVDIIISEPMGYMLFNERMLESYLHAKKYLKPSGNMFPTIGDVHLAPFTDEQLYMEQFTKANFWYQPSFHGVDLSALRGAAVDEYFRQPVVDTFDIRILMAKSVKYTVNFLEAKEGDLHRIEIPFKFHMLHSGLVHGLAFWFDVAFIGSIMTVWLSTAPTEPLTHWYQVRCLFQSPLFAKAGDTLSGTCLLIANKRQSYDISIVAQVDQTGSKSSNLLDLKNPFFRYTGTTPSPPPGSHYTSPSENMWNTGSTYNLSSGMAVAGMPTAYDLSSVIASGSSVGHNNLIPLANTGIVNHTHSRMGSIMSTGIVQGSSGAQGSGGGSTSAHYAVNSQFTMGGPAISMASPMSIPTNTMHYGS
UniProt Q2FV99, 60-206 limits assumed: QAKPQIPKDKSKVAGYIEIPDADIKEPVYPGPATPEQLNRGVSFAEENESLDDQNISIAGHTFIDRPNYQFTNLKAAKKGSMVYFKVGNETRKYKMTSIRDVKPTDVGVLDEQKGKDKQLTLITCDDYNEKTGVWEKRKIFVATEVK

SMILES	tested on	test	test system	conditions	measurement	result
Cc1cc(O)cc(C)c1C[C@@H]1NC[C@H](CCCCN)NC(=O)[C@H](Cc2ccccc2)NC(=O)[C@@H](CCCNC(=N)N)NC1=O	Oprm1 (Rattus norvegicus, UniProt P33535)				Ki	0.00902 ± 0.00151 µM
COc1ccc(CNC(=O)c2ccccc2CNCc2ccc3c(c2C(=O)O)OCO3)cc1	HIV-1 integrase core domain Y131D	binding, surface plasmon resonance			Kd	> 2000 µM
C[C@H](N)C(=O)N[C@@H](CO)C(=O)N[C@@H](C)C(=O)N[C@H]1CSC(=O)[C@H](Cc2ccccc2)NC(=O)[C@H](Cc2ccc(O)cc2)NC(=O)[C@H](C)NC(=O)[C@H](C)NC1=O	Accessory gene regulator protein C (Staphylococcus epidermidis, UniProt Q8VSX5)	antagonist, reporter strain			IC50	0.00036 µM
N[C@@H](Cc1ccc(O)cc1)C(=O)N1Cc2ccccc2C[C@H]1CN[C@@H](CC1CCCCC1)C(=O)N[C@@H](Cc1ccccc1)C(=O)O	Oprm1 (Rattus norvegicus, UniProt P33535)				Ki	1.05 ± 0.01 µM
CCCCCCCCCCc1ccc(-c2noc(CCCN)n2)cc1	SPNS2 (Homo sapiens, UniProt Q8IVW8)	S1P export, inhibitor		together with: NBD-S1P	IC50	~6 µM
Cc1ccc2ccc(-c3cccc(C#N)c3)cc2n1	Grm5 (Rattus norvegicus, UniProt P31424)	calcium flux, antagonist			IC50	0.029 ± 0.005 µM
O=C(N[C@@H]1CC[C@@]2(O)[C@H]3Cc4ccc(O)c5c4[C@@]2(CCN3CC2CC2)[C@H]1O5)c1ccnc(Cl)c1	Oprm1 (Mus musculus, UniProt P42866)	radioligand binding	CHO	together with: [3H]naloxone	Ki	0.0001 ± 4e-05 µM
Ic1ccc(CSCn2ccnc2)cc1	OPRD1 (Homo sapiens, UniProt P41143)				Ki	> 10 µM
C=CCN1CC[C@]23c4c5ccc(O)c4O[C@H]2[C@H](NC(=O)c2cccc(I)c2)CC[C@@]3(O)[C@H]1C5	Oprd1 (Mus musculus, UniProt P32300)				Ki	0.0026 ± 0.00018 µM
NCCNCCSc1ccccc1			urine	100 µg/mL, three freeze-thaw cycles	freeze-thaw stability	94.8 ± 2.27 % remaining
c1ccc2c(c1)ccc[n+]2CCCCCCCCCC[n+]1cccc2ccccc21			rat, plasma	intramuscular, 5% of LD50	Cmax	0.1 µM
CC[C@H](C)[C@H](N)C(=O)N[C@@H](CC(N)=O)C(=O)N[C@H]1CSC(=O)[C@H](CC(C)C)NC(=O)[C@H](CC(C)C)NC(=O)[C@H](Cc2ccccc2)NC(=O)[C@H](CC(=O)O)NC1=O	Accessory gene regulator protein C (Staphylococcus aureus, UniProt O33590)	agonist, β-lactamase reporter			EC50	0.406 µM
CC(C)Oc1cc(NC(=O)[C@@H](Cc2ccccc2)NC(=O)c2ccc(N)c(OCc3ccccc3)c2)ccc1C(=O)NCC(=O)O	E3 ubiquitin-protein ligase Mdm2, with p53 (MDM2, Homo sapiens, UniProt Q00987, L33E)	p53-MDM2 interaction, inhibitor, fluorescence anisotropy competition			IC50	9.2 µM
C=CC[N+](C)(C)c1ccc(CCC(=O)CCc2ccc([N+](C)(C)CC=C)cc2)cc1	ACHN	cytotoxicity, MTT			IC50	> 3000 µM
CC(=O)N1CCC[C@@H]1C(=O)N[C@@H](C)C(=O)N[C@@H](Cc1ccccc1)B(O)O	Proteasome subunit beta type-2, β2 subunit (Plasmodium falciparum, UniProt Q8I261+Q8I6T3)	β2 activity, inhibitor		together with: Ac-WLR-AMC substrate	IC50	> 10 µM
CSCCC(NC(=O)C(NC(=O)C(CO)NC(=O)C(Cc1ccccc1)NC(=O)C1CCCN1C(=O)C1CCCN1C(=O)C(CCCNC(=N)NCCCC1OC(n2cnc3c(N)ncnc32)C(O)C1O)NC(=O)C1CCCN1C(=O)C(C)NC(=O)C(C)NC(=O)C1CCCN1C(C)=O)C(C)O)C(=O)O (centres unmarked)	CARM1 (Homo sapiens, UniProt Q86X55)	enzyme activity, inhibitor			IC50	0.09 µM
CCOc1c(SSc2cnn(-c3ccccc3)c(=O)c2OCC)cnn(-c2ccccc2)c1=O	srtA (Staphylococcus aureus, UniProt Q2FV99)	inhibitor			IC50	1.5 ± 0.4 µM

A few entries again:
SMILES	tested on	test	test system	conditions	measurement	result
NCCNCCSc1ccccc1			urine	100 µg/mL, three freeze-thaw cycles	freeze-thaw stability	94.8 ± 2.27 % remaining
CC[C@H](C)[C@H](N)C(=O)N[C@@H](CC(N)=O)C(=O)N[C@H]1CSC(=O)[C@H](CC(C)C)NC(=O)[C@H](CC(C)C)NC(=O)[C@H](Cc2ccccc2)NC(=O)[C@H](CC(=O)O)NC1=O	Accessory gene regulator protein C (Staphylococcus aureus, UniProt O33590)	agonist, β-lactamase reporter			EC50	0.406 µM
